Published values gathered from unrelated publications.
Each numbered part is a random draw from the data of one study; scales do not carry over between parts. Positions count from the first letter of the parent shown.

Block 1
Target: Interferon regulatory factor 3, full length, phosphomimetic (IRF3, Homo sapiens, UniProt Q14653, residues 1-427, S386D/S396D/S398D/S402D/T404D/S405D)
Method: protein-binding microarray
Form: double-stranded DNA, one strand shown
Sample: in vitro
Tested at: 2540 nM top
Setting: 60-bp whole probe
With: salmon DNA 0.4 mg/ml
Relative to: random background probes
Reading: higher = stronger binding
Shared flanks, not repeated: GCCTAGCAC … GTCTTGATTCGCTTGACGCTGCTG
Construct (chain): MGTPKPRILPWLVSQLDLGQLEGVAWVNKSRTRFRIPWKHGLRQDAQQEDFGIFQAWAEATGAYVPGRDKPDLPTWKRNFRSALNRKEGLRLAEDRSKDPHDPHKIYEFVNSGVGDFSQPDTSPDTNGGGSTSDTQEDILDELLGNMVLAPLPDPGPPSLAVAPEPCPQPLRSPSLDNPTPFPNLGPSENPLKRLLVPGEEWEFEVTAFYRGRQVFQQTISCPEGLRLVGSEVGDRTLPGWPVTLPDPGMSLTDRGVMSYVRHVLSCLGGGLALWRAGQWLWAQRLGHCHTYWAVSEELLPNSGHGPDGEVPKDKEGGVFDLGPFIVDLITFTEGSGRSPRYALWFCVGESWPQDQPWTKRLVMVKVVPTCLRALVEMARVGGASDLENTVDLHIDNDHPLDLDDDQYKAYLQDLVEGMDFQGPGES
Strand | fitted relative affinity [z-score]
GACGAACTGCGGTTTCGAGACGTGCTA | 1.79
TTTGGACTGCTACTGCTTTAGTGCTAG | -0.639
TCAAATATATATATTGTACTGTGCTAG | 0.271
GGAGGAGCGGGACTGCCACCGTGCTAG | -0.699
GACGGTTTCGGACTGGGGAGGTGCTAG | 4.55
TTAGGTTTCGACCATCGGTTAGTGCTA | 1.3
GACAGTTTCCTACTGCTGACGTGCTAG | 5.72
GACGAACTGGGTACTGGAGACGTGCTA | -0.432
TCAATTATATATATCATACTGTGCTAG | 0.766
GACGAGATCGGGTTTCGAGACGTGCTA | 1.11
TTAGGTTTCGGTCTCTGTTAGTGCTAG | 8.47
GACGGTCTTGGTCTCGGGACGTGCTAG | 0.000188

Block 2
Target: RNA binding protein fox-1 homolog 2, RRM domain, GST-SBP tag (RBFOX2, Homo sapiens, UniProt O43251-10, residues 100-194)
Method: RNA Bind-n-Seq
Form: RNA
Sample: in vitro
Tested at: 365 nM
Setting: natural RNA segment, single round, ends assumed
Relative to: no-protein control
Reading: higher = stronger binding
Residues (chain): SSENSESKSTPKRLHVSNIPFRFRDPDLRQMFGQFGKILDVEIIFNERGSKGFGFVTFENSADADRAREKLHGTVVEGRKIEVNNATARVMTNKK
Strand | RBNS enrichment (R)
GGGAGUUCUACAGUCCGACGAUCUGAAUGUCACUCUCCACUGCUGCAGCAGUAAAUCUCUCAGUAAAAGAAGACCCUCUCCCUCAGGGGACUGUCACCUCAGUCCUCGGUAGUUCUGUAAUUUAUUGAACAUUUGGAAUUCUCGGGUGCCAA | 0.361
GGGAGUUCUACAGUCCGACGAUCAUGUUGUGACAAUAUCUAUGGCCACUGUUAGCCCAUUAUGUUCAUUCCAAUUAGAAGAAAUGUGAAUACUAUAUUACGUGUUUUGAGUGACGAGUUUGGGAAAAUAAAAAUGGAAUUCUCGGGUGCCAA | 0.304
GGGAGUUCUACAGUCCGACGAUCAGACCUAGCCUGGUUUUCCCUUAGACAAUGAAUGAAGUGUGCCCAUUGAAAUAAAACUCAAACCACACUGCGGUUGUUGUCUUAAUGAUUAAAUGUUCCGUUUCUAGCUGUGGAAUUCUCGGGUGCCAA | 0.256
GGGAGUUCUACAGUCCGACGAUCGCUUUCAGCCUGCUGCCUAAAUCGGCAAAGGAACACAGCGGGAAAGAGAGAUCUGGGUCUUGGUAAUAUAAGGAAUCUAUUGGAGAGCCAGAAAAGGAAAGACACUGGGGUGGAAUUCUCGGGUGCCAA | 0.866
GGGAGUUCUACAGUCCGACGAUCAAGUGGAAUCUUCUCCCUACAUAAAAUUUUGCAAAGUUGGGGUGCCAGAAUUAAAUUAUGUAUUAAACUCUUGUCUCCAUUUAACACCUUUGCAGUGAAAAACUUUUUGCUGGAAUUCUCGGGUGCCAA | 0.794
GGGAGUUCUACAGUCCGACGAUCCCAUGUGUAACAGAGCUUAGACAUCCAAAACUAAUCAAUGCUGAGGUGGCUAAAUACCUAGCCUUUUACAUGUAAACCUGUCUGCAAAAUUAGCUUUUUUAAAAAAAAAAUGGAAUUCUCGGGUGCCAA | 0.559
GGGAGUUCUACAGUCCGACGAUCAAUCUGUUUGUGUUUCUGAGCCUGGUUCCUCCAAGACACAGGAAUGAAGUGGGGCCACAGAUUUAGAAUCCAUUUAAGUUUCCCUGUUGUGUGUCUGUGUUGACCCUGGGUGGAAUUCUCGGGUGCCAA | 0.916
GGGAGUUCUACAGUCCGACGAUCGAGGACCUUUAGGUCAAACUCCCUAGUCUCCACCUGAGACCCUGGGAGAGAAGUUUGAAGCACAACUCCCUUAAGGUCUCCAAACCAGACGGUGACGCCUGCGGGACCAUUGGAAUUCUCGGGUGCCAA | 0.255
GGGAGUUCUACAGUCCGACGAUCGGGCCGAGGUUUGCUGUGGUUCUUGUUUCAGACUGGCGUGCUGAGUGCUGGAAGCUGUUUGCACCUUUGUCAGGACACUGCGUUUCAGAAGCCACUGUUCCCUCUGGUGGUGGAAUUCUCGGGUGCCAA | 0.504
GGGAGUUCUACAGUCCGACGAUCCCACUCCAGCUGGGCCGGUGUGCAGUGGGCCAGGGUCCUCACCUGCCUUGCAGACCCUGGUUCCCGCCCUGUGGAUCUCUCAGCACUACUGAUGUGUCCUGGGUUGGCAGUGGAAUUCUCGGGUGCCAA | 2.48
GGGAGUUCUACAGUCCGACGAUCCUUUGCGGAUGACCUCAUUUUGAUGUUAAAAAAAAACUGAUUUUUUUAAUAUGUGGACGCUGCAAAAAAUGUGUUUAAAUUAUCUUUUUUAAGAUGAAUUAAGGACUAUUUGGAAUUCUCGGGUGCCAA | 0.383
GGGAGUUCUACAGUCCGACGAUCUCUAGAUUAUUGUAUAUUCUCACUGGUAUGCUGUUCCCUGGGGGGUGUUCUGUGUCCGACGCUGAGUGACCCUUUGUGAGAAAGACGUUGCCUUUGCAGUACAUGAAACAUGGAAUUCUCGGGUGCCAA | 0.442

Block 3
Target: ABI1, truncated, D143A, DHFR fusion (Arabidopsis thaliana)
Method: DHFR PCA, deep sequencing
Sample: yeast
Setting: methotrexate growth selection, single substitutions
With: (+)-ABA 710 µM
Relative to: wild-type fitted maximum
Reading: higher = stronger binding
Starting sequence: PYL1, truncated, DHFR fusion (Arabidopsis thaliana); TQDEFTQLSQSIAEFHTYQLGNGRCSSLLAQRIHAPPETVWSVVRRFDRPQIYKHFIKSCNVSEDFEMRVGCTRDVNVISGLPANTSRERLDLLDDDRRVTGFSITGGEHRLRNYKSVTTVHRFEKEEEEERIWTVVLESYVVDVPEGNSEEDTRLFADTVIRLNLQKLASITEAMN
Variant | relative binding score
V62D | 50.6%
D65A | 103%
S59L | 89.4%
E4C | 95.5%
Y53T | 55.7%
L94T | 72.7%
E14H | 92.7%
H110I | -9.32%
T101F | 117%
S171C | 94.3%
M176V | 99.2%
V143R | -2.95%
L164C | 99.8%
R24S | 99.8%

Block 4
Target: RING finger protein unkempt homolog, zinc fingers 1-6, GST-SBP tag (UNK, Homo sapiens, UniProt Q9C0B0, residues 30-357)
UniProt Q9C0B0, sequence (30-357, looked up): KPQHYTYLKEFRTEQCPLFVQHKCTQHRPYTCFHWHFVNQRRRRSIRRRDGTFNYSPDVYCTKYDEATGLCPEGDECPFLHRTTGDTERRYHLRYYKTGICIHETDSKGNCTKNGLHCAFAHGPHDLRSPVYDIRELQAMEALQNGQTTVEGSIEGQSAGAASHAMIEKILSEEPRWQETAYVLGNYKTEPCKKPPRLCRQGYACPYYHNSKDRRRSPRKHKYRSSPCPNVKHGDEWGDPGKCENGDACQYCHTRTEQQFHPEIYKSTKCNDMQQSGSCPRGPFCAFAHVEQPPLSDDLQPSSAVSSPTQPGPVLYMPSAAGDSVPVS
Method: RNA Bind-n-Seq
Form: RNA
Sample: in vitro
Tested at: not given
Setting: RNA with constant flanks, human and mouse sites, ends assumed
Relative to: input RNA pool
Reading: higher = stronger binding
Strand | bound/input enrichment [ratio]
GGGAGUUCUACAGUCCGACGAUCUUCCACUUUUUUUUCCUUCAUGGAGACUGUUUGUUUGGCUUUCUUCCAUUGUUGUUUUUGUAGCAUUUAUUUCAGAAAUGUGUAUUUCCAUAAUCCAGAGGUUGUAAAACCACUAGUGUUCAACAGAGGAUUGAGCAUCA | 1.28
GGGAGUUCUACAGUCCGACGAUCACUACCCUUUCUGGGGUCCAAGAAGAAUCUGCCCUUUGCUAUCUUCUCCAAGUUGAUGAGUUUAGAUUUUUAUUGGACUGUGGCUGGGAUGAGCACUUUUCUAUGGAUAUUAUUGAUUCCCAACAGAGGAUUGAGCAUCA | 0.461
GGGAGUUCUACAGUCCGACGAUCCACUCUGGGGAAGAAGGAGUACAUUGAAGGGAGAUUGGCACCUAGUGGCUGGGAGCUUGCCAGGAACCCAGUGGCCAGGGAGCGUGGCACUUACCUUUGUCCCUUGCUUCAUUCUUGUGACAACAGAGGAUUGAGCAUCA | 0.129
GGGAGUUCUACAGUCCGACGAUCGAUAUGGGCUAUAAUACAUUAGCCAACUUUCGAAUAGAAAAGAAAAUUGGUCGCGGACAAUUUAGUGAAGUUUAUAGAGCAGCCUGUCUCUUGGAUGGAGUACCAGUAGCUUUAAAAAAACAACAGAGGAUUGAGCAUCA | 2.47
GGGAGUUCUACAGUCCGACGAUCUGUACAAACCCCAUAACGCCCCUCUGCACACAGCCCGACCAAGUUAUUAAAGGGGGCGCUAGUAUUAUUCAGUGCCACAUCCUAAAUGACAAGCGACACAUAUUAACCAAAGAUACGAAUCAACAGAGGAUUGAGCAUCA | 1.13
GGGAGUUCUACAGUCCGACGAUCGAUACAAAAAGGCUUUCCCGAGAAGAGAAGGGUCGCAGCAGCUGUGGUAGGAAUUUCUGGGUUAGUGGCCUUUCGUCUACAACCAGAGCCACGGAUCUGAAGAACCUGUUUAGCAGAUAUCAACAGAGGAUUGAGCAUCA | 0.929
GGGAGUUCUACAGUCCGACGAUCGAGAUAAUGGCCUCAGCUGCUAAGGAAUUUAAAAUGGACAACUUUUCACCUAAAGCUGGCACUAGCAAAUUGCAGCAGACAGUACCAGCUGAUGCGUCUCCUGAUUCUAAGUGUCCUAUACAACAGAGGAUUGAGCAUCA | 0.188

Block 5
Target: Histone acetyltransferase KAT6A, winged helix 2, GST fusion (KAT6A, Homo sapiens, UniProt Q92794, residues 85-181)
Method: protein binding microarray
Form: double-stranded DNA, one strand shown
Sample: in vitro
Tested at: not given
Setting: 8-mer, flanks averaged, mean of 2 arrays, mostly near background
Relative to: not given
Reading: higher = stronger binding
Residues (chain): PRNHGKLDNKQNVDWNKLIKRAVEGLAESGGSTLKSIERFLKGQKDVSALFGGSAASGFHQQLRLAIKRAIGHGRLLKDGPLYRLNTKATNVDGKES
Strand | E-score
GCACCTGC | 0.138
AGATTGTA | -0.0205
ACACATAA | -0.202
AAGCACAG | 0.187
ATCGCCCA | 0.0249
AGTGGTCA | -0.122
AATATCGA | 0.0609
ACCCGCGG | 0.162
AGACCGTG | -0.00847
ATTAGACA | 0.0515
ACATGGGT | -0.17
CCTACGAA | -0.064
CGAACACG | 0.093
CTACAATC | 0.0152
AGAACCCA | -0.036
CAGGGCCC | -0.0502

Block 6
Target: PABPC1L2, full length, GST fusion (mouse, UniProt A0ABA7IW68)
Method: RNAcompete
Form: RNA
Sample: in vitro
Tested at: 20 nM
Setting: 7-mer, probes averaged, single round
Relative to: mean of 7-mers
Reading: higher = stronger binding
Residues (chain): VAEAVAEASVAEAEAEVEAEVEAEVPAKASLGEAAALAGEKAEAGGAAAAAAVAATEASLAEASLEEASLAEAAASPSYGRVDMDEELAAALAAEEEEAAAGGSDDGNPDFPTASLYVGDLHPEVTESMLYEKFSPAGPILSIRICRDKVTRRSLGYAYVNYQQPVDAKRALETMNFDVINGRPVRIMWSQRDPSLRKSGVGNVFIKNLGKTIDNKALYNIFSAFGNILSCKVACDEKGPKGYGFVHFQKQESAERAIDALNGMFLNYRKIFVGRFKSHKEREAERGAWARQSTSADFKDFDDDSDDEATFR
Strand | 7-mer Z-score
GGGAUCG | 0.22
UGACCGC | -0.0844
CUUCCCC | -0.409
CUGGGGA | 0.271
GUAUCAA | 0.0986
AGGUAAG | 0.0823
AGUCGUC | -0.454
CUAUUAG | -0.253
AGAUGAU | -0.184
CCCGUAA | -0.0228
CCUACUG | -0.222

Some of these lines once more (block 5):
Strand | E-score
ACCCGCGG | 0.162
AGAACCCA | -0.036
AGACCGTG | -0.00847
AATATCGA | 0.0609
CAGGGCCC | -0.0502
AGTGGTCA | -0.122
AAGCACAG | 0.187
